Experimental data pooled from the literature.
Each numbered part is a random draw from the data of one study; scales do not carry over between parts. Values joined by “and” are separate records of one study, mostly repeats; a detail may differ.
Chain of UniProt P07333 (whole entry, looked up): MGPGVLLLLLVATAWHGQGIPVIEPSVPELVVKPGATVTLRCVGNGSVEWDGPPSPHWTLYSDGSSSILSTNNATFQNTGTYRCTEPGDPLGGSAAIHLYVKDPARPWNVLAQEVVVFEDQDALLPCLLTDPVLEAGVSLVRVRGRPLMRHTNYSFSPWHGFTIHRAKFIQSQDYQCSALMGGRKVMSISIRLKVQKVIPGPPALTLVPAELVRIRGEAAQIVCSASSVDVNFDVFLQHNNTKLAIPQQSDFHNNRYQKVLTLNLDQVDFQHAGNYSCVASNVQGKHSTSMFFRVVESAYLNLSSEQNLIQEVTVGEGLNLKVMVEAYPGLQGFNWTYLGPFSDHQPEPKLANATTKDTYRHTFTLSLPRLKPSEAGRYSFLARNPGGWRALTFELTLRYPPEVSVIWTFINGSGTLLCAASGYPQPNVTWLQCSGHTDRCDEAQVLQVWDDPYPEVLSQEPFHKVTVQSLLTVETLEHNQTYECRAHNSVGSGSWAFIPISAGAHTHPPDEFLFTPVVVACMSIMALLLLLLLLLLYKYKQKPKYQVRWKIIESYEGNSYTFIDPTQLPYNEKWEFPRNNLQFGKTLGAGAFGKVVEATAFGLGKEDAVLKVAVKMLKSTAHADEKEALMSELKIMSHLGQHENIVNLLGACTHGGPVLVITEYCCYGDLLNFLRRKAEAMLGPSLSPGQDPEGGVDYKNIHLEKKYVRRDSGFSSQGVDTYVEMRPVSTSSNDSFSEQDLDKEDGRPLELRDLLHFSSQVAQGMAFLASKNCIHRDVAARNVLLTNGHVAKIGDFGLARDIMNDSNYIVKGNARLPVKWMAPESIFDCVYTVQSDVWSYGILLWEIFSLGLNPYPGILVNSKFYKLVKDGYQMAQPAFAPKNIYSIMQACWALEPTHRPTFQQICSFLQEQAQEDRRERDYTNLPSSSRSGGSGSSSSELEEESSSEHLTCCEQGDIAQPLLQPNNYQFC
Chain of UniProt Q16832 (whole entry, looked up): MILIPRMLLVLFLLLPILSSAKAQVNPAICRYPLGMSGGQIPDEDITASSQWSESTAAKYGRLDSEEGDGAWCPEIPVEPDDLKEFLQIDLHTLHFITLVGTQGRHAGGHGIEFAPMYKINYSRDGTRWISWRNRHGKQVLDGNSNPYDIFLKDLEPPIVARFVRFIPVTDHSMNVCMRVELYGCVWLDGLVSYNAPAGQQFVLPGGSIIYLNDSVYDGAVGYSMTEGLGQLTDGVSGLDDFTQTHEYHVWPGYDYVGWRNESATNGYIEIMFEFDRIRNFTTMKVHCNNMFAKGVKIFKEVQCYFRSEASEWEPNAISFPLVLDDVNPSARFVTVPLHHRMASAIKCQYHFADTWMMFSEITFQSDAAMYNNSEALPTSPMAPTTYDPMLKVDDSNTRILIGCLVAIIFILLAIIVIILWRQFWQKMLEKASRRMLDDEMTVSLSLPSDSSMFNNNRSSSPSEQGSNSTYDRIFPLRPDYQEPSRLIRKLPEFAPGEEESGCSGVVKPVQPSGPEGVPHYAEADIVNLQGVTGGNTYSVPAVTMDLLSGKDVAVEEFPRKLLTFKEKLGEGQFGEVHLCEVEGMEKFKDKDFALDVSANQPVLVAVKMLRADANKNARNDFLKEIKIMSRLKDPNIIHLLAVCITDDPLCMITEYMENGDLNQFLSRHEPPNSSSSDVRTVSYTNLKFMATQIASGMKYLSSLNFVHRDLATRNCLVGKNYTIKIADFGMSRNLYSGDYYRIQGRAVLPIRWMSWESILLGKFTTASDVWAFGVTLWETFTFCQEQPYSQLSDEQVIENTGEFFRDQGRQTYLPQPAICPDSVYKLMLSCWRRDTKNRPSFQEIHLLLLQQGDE
Chain of UniProt Q16566 (whole entry, looked up): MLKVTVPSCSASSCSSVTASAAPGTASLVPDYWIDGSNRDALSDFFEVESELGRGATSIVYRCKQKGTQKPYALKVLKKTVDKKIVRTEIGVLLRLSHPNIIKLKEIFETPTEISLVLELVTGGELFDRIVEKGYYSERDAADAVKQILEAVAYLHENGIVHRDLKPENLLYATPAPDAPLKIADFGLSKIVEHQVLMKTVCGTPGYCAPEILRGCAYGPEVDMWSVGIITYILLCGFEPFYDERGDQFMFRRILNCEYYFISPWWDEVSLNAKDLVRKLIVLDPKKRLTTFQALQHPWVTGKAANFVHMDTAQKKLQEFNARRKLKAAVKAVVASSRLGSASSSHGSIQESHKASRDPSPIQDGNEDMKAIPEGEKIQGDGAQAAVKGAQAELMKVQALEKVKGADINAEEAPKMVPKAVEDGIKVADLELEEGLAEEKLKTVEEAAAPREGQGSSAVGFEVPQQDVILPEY

Set 1
Cell line: A-375
Tested at: 100 µM
Time: 36 h
SMILES	viability [%]
O=C(O)c1ccc[n+]([O-])c1	124
C[C@@H]1O[C@@H](OC[C@H]2O[C@@H](Oc3c(-c4ccc(OCCO)c(OCCO)c4)oc4cc(OCCO)cc(O)c4c3=O)[C@H](O)[C@@H](O)[C@@H]2O)[C@H](O)[C@H](O)[C@H]1O	108
O=C1[C@@H]2[C@H]3CC[C@H](C3)[C@@H]2C(=O)N1C[C@@H]1CCCC[C@H]1CN1CCN(c2nsc3ccccc23)CC1	95.2
CC1=NS(=O)(=O)c2cc(Cl)ccc2N1	106
CCN(CC)CCNC(=O)c1cc(Br)c(N)cc1OC	93.9
CCCCc1oc2ccc(NS(C)(=O)=O)cc2c1C(=O)c1ccc(OCCCN(CCCC)CCCC)cc1	-0.479
CN1C(C)(C)CCCC1(C)C	106

Set 2
Compound: CO[C@@H]1[C@H](N(C)C(=O)c2ccccc2)C[C@H]2O[C@]1(C)n1c3ccccc3c3c4c(c5c6ccccc6n2c5c31)C(=O)NC4
Mode: inhibitor
Tested at: 1 µM
target	assay	inhibition [%]
TAOK1 (Homo sapiens, UniProt Q7L7X3)	enzyme activity	50
MAP4K4 (Homo sapiens, UniProt O95819)	enzyme activity	50
CAMK4 (Homo sapiens, UniProt Q16566)	enzyme activity	0
Ribosomal protein S6 kinase alpha-6, C-terminal kinase domain (RPS6KA6, Homo sapiens, UniProt Q9UK32)	–	12
MAPK3 (Homo sapiens, UniProt P27361)	enzyme activity	0
WEE2 (Homo sapiens, UniProt P0C1S8)	enzyme activity	0
PIM1 (Homo sapiens, UniProt P11309)	enzyme activity	35
CDKL5 (Homo sapiens, UniProt O76039)	enzyme activity	11
PIK3CA (Homo sapiens, UniProt P42336, I800L)	enzyme activity	0

Set 3
Target: DNA polymerase theta, ATPase domain (POLQ, Homo sapiens, UniProt O75417)
Chain of UniProt O75417 (whole entry, unmodified, looked up): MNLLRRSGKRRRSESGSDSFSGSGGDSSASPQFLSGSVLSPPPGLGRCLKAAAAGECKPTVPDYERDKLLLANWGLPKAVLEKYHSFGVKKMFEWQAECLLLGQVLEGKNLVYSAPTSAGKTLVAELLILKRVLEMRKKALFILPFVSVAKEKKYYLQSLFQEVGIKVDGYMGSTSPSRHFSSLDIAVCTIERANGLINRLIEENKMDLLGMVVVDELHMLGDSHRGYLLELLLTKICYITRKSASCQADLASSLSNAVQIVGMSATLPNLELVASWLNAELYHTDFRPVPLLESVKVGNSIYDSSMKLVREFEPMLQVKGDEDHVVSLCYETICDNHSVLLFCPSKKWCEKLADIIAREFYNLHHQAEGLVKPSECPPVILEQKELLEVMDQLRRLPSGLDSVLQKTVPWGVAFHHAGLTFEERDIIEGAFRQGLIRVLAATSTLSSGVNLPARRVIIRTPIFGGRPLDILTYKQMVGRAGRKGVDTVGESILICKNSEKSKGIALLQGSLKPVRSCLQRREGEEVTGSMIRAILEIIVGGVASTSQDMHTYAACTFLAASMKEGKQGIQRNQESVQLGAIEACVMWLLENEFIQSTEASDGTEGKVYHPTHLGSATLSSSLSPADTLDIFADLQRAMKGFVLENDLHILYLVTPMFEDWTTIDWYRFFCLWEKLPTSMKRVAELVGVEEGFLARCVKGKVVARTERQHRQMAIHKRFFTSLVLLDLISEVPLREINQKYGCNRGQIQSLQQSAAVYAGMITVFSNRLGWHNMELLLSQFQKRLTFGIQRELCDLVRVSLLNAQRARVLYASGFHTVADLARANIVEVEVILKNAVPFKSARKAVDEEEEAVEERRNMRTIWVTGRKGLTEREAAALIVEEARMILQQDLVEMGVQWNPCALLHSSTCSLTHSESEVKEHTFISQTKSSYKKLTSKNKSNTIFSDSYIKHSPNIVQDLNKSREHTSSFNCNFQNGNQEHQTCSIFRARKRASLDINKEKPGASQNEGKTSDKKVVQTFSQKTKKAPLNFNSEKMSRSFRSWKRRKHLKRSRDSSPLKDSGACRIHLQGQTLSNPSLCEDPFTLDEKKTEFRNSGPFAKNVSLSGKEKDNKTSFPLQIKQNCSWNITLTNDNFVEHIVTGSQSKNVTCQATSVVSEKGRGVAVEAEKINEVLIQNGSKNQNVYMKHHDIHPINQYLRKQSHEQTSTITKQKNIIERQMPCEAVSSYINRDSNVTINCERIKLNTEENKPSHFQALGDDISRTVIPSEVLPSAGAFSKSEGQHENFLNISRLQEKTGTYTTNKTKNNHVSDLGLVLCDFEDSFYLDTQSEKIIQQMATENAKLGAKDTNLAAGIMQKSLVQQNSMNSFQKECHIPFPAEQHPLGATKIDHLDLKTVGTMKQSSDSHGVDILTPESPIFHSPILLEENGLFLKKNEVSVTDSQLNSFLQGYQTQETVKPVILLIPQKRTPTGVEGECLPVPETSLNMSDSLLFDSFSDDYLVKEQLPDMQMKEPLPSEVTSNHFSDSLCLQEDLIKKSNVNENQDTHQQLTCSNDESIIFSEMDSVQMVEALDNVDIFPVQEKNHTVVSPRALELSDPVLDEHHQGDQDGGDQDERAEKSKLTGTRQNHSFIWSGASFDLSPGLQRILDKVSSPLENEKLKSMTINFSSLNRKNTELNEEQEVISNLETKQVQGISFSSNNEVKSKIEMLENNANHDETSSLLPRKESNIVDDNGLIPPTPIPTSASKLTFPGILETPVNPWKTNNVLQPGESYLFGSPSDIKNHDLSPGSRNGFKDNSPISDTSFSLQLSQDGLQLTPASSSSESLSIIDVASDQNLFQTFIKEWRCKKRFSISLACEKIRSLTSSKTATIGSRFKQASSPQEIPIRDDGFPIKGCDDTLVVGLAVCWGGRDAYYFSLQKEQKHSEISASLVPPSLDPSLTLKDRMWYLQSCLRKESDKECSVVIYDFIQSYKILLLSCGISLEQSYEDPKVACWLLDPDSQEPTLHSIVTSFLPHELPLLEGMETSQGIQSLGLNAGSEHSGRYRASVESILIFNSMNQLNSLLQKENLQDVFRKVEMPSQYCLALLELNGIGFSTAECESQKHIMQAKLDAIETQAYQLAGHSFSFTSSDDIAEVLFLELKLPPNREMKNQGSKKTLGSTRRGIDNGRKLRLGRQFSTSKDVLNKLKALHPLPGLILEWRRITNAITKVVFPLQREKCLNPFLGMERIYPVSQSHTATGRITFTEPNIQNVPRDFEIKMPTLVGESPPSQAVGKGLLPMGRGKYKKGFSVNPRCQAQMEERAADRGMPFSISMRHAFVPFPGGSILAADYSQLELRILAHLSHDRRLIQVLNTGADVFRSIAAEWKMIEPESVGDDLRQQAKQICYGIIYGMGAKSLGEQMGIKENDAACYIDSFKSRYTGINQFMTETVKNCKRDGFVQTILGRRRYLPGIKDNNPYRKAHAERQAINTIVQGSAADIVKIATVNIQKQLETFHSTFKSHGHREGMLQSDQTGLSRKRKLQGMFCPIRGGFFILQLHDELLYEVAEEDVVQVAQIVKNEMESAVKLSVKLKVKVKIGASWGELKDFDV
Read-out: enzyme activity
Mode: inhibitor
Tested at: 77 µM
Relative to: untreated
Compound	remaining activity
O=C(O[C@H]1CN2CCC1CC2)N1CCc2ccccc2[C@@H]1c1ccccc1	98%
CCN(CC)CCOC(=O)C1(c2ccc([N+](=O)[O-])cc2)CCCC1	98.3%
CC(=O)OCC(=O)[C@@]1(O)CC[C@H]2[C@@H]3CCC4=CC(=O)C=C[C@]4(C)[C@@]3(F)[C@@H](O)C[C@@]21C	96.2%
CN(Cc1cnc2nc(N)nc(N)c2n1)c1ccc(C(=O)N[C@@H](CCC(=O)O)C(=O)O)cc1 (racemic)	101%
C[C@@H](N)[C@H]1CC[C@H](C(=O)Nc2ccncc2)CC1	102% and 111%
CN(C)C(=O)Oc1ccc[n+](C)c1	95.5% and 104%
CC1(COc2ccc3c(c2)ncn3-c2ccc3cccc(N4CCC(N)CC4)c3n2)COC1	98.8%
CC(C)NC[C@@H](O)c1ccc(O)c(O)c1	100%
CN[C@@H]1[C@@H](O[C@H]2O[C@H](CO)[C@@H](N)[C@H](O)[C@H]2O)O[C@H]2C[C@@H](N)[C@@H](O[C@H]3[C@H](O)[C@@H](O)[C@H](N)C[C@@H]3N)O[C@@H]2[C@@H]1O	102%

Set 4
Compound: CCC(=N\O)/C(C)=C/c1ccc(F)cc1
Tested at: 1 µM
target	assay	setting	scale	remaining binding
PTK2 (Homo sapiens, UniProt Q05397)	cell-free assay, competition with immobilised ligand	–	–	82%
CLK2 (Homo sapiens, UniProt P49760)	cell-free assay, competition with immobilised ligand	–	–	78%
DDR2 (Homo sapiens, UniProt Q16832)	cell-free assay, competition with immobilised ligand	–	–	91%
FLT3 (Homo sapiens, UniProt P36888, K663Q)	cell-free assay, competition with immobilised ligand	–	–	100%
STK39 (Homo sapiens, UniProt Q9UEW8)	cell-free assay, competition with immobilised ligand	–	–	94%
LTK (Homo sapiens, UniProt P29376)	cell-free assay, competition with immobilised ligand	–	–	87%
CAMK1 (Homo sapiens, UniProt Q14012)	cell-free assay, competition with immobilised ligand	–	–	100%
EPHB6 (Homo sapiens, UniProt O15197)	cell-free assay, competition with immobilised ligand	–	–	95%
MAP4K1 (Homo sapiens, UniProt Q92918)	cell-free assay, competition with immobilised ligand	–	–	92%
HIPK3 (Homo sapiens, UniProt Q9H422)	cell-free assay, competition with immobilised ligand	–	–	78%
PKMYT1 (Homo sapiens, UniProt Q99640)	cell-free assay, competition with immobilised ligand	–	–	100%
INSRR (Homo sapiens, UniProt P14616)	cell-free assay, competition with immobilised ligand	–	–	83%
Macrophage colony-stimulating factor 1 receptor, autoinhibited (CSF1R, Homo sapiens, UniProt P07333)	cell-free assay, competition with immobilised ligand	–	–	100%
CSF1R (Homo sapiens, UniProt P07333)	cell-free assay, competition with immobilised ligand	–	–	91%
GSK3A (Homo sapiens, UniProt P49840)	cell-free assay, competition with immobilised ligand	–	–	100%
CAMK2B (Homo sapiens, UniProt Q13554)	cell-free assay, competition with immobilised ligand	–	–	97%
NEK4 (Homo sapiens, UniProt P51957)	cell-free assay, competition with immobilised ligand	–	–	83%
PNCK (Homo sapiens, UniProt Q6P2M8)	cell-free assay, competition with immobilised ligand	–	–	82%
FLT3 (Homo sapiens, UniProt P36888, ITD)	cell-free assay, competition with immobilised ligand	–	–	94%
BLK (Homo sapiens, UniProt P51451)	cell-free assay, competition with immobilised ligand	–	–	87%
DAPK1 (Homo sapiens, UniProt P53355)	cell-free assay, competition with immobilised ligand	–	–	100%
FER (Homo sapiens, UniProt P16591)	cell-free assay, competition with immobilised ligand	–	–	74%
MAP4K3 (Homo sapiens, UniProt Q8IVH8)	cell-free assay, competition with immobilised ligand	–	–	100%
WNK4 (Homo sapiens, UniProt Q96J92)	cell-free assay, competition with immobilised ligand	–	–	100%
ABL1 (Homo sapiens, UniProt P00519, E255K)	KINOMEscan	E255K mutant, phosphorylated	relative to: control	52%
